Experimental data pooled from the literature.
Each line is one published result; not all experiments were run side by side. ± gives the spread as reported.
Sialidase-2: Sialidase-2 (Homo sapiens, UniProt Q9Y3R4)
UniProt Q9Y3R4, sequence (whole entry, looked up): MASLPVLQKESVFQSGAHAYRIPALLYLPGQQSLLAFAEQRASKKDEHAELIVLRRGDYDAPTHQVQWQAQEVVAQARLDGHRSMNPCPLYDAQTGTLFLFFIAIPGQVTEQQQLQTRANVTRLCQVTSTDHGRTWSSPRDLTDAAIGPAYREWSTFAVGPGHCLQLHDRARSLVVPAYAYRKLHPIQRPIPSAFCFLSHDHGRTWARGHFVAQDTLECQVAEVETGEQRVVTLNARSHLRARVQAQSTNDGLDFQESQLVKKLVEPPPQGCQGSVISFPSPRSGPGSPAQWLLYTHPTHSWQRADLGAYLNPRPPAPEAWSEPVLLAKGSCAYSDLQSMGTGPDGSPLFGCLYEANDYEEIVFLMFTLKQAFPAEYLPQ
UniProt P52790, sequence (whole entry, unmodified, looked up): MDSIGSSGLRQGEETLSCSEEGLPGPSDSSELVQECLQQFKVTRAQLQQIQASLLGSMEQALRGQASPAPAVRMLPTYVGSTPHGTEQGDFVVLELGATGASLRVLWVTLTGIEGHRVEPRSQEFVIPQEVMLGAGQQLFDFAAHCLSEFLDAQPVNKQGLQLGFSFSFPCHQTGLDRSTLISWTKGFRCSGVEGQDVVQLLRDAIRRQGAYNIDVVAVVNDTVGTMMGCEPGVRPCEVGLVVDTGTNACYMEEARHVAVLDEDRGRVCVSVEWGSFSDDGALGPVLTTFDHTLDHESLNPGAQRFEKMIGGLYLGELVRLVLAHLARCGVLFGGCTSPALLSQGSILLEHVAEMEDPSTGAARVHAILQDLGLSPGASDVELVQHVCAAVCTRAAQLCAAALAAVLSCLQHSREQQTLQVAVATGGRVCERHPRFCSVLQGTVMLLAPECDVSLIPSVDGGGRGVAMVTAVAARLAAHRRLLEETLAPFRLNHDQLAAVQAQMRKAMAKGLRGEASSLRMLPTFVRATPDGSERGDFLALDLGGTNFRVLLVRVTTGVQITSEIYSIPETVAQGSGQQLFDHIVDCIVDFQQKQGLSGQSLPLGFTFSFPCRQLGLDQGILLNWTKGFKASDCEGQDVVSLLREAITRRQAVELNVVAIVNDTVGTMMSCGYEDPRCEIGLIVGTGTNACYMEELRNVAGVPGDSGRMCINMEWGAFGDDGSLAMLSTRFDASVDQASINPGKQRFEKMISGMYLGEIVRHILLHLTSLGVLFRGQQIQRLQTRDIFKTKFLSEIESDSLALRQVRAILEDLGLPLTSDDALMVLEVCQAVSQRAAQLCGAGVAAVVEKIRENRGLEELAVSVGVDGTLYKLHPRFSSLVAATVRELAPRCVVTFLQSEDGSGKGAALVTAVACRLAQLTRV

`CC(C(=O)Nc1ccc([C@H]2[C@@H](F)[C@@H](F)C[C@@H](F)[C@H]2F)cc1)n1cncn1` (stereo partly drawn) gave a hepatic clearance of 0.6 L/h/kg (dog liver microsomes; 1 µM).
`CO/N=C(\C(=O)N[C@@H]1C(=O)N2C(C(=O)O)=C(COC(C)=O)CS[C@H]12)c1csc(N)n1` has a Km of 210 ± 8.9 µM (beta-lactamase RAD-1 (Riemerella anatipestifer); substrate, continuous spectrophotometric hydrolysis; 30 °C).
`Nc1ccc2c(O)c(N=Nc3ccc(N=Nc4ccc(N=Nc5cc(S(=O)(=O)O)c6cccc(S(=O)(=O)O)c6c5)c5ccccc45)c4ccc(S(=O)(=O)O)cc34)c(S(=O)(=O)O)cc2c1` gave a Km of 23 µM (alternative ancestral dye-decolorizing peroxidase; peroxidase activity, substrate, steady-state kinetics; 25 °C, pH 3 ABTS, 4 others).
`CC(=O)N[C@H]1[C@H]([C@H](O)[C@H](O)CO)O[C@@](OC[C@H]2O[C@@H](Oc3ccc([N+](=O)[O-])cc3)[C@H](O)[C@@H](O)[C@H]2O)(C(=O)O)C[C@@H]1O` gave a Km of 2100 ± 200 µM (Sialidase-2; substrate; 10 min, pH 5.0, 37 °C).
The hepatic clearance of `O=C(NCc1cc[nH]n1)c1ccc(C2CCCCC2)cc1` is reported as 1.08 L/h/kg (hepatocyte stability; cryopreserved human hepatocytes; 1 µM).
Under “fold potency loss”, `CC[C@H](C)[C@H](NC(=O)[C@H](Cc1ccccc1)NC(=O)[C@H](CCC(=O)O)NC(=O)[C@H](CCCNC(=N)N)NC(=O)[C@H](C)NC(=O)[C@H](C)NC(=O)[C@H](CCC(N)=O)NC(=O)[C@H](CCC(=O)O)NC(=O)[C@H](CCC(=O)O)NC(=O)[C@H](CC(C)C)NC(=O)[C@H](Cc1ccc(O)cc1)NC(=O)[C@H](CO)NC(=O)[C@H](CO)NC(=O)[C@@H](NC(=O)[C@H](CC(=O)O)NC(=O)[C@H](CO)NC(=O)[C@@H](NC(=O)[C@H](Cc1ccccc1)NC(=O)[C@@H](NC(=O)CNC(=O)[C@H](CCC(=O)O)NC(=O)[C@H](C)NC(=O)CCc1cnc[nH]1)[C@@H](C)O)[C@@H](C)O)C(C)C)C(=O)N[C@@H](C)C(=O)N[C@@H](Cc1c[nH]c2ccccc12)C(=O)N[C@@H](CC(C)C)C(=O)N[C@H](C(=O)N[C@@H](CCCCNc1c(NCCCCCN(O)C(=O)CCC(=O)NCCCCCN(O)C(=O)CCC(=O)NCCCCCN(O)C(C)=O)c(=O)c1=O)C(=O)NCC(=O)N[C@@H](CCCNC(=N)N)C(=O)N[C@@H](CCCCNc1c(NCCCCCN(O)C(=O)CCC(=O)NCCCCCN(O)C(=O)CCC(=O)NCCCCCN(O)C(C)=O)c(=O)c1=O)C(=O)NCC(=O)NCC(=O)N[C@@H](CO)C(=O)N[C@@H](CCCCNC(=O)COCCOCCNC(=O)COCCOCCNC(=O)CC[C@H](NC(=O)CCCCCCCCCCCCCCCCC(=O)O)C(=O)O)C(=O)O)C(C)C` is recorded as 3.6 (GLP1R (Homo sapiens, UniProt P43220); agonist, CRE luciferase reporter; BHK cells; Zr-loaded DFO conjugate, with: 0% HSA; baseline: parent peptide).
`CCCCCCCCCCCCCCCC(=O)SCCNC(=O)CCNC(=O)[C@H](O)C(C)(C)COP(=O)(O)OP(=O)(O)OC[C@H]1O[C@@H](n2cnc3c(N)ncnc32)[C@H](O)[C@@H]1OP(=O)(O)O` gave a Km of 205 ± 43.2 µM (glycerol-3-phosphate acyltransferase; substrate; 3T3-L1 preadipocytes, total membranes; pH 7.5, room temperature, with: [3H]glycerol-3-phosphate).
`O=C(CO)NC1C(O)CC(OCC2OC(Oc3ccc([N+](=O)[O-])cc3)C(O)C(O)C2O)(C(=O)O)OC1C(O)C(O)CO` (stereo not drawn) has a Km of 2200 ± 100 µM (Sialidase-2; substrate; 10 min, pH 5.0, 37 °C).
The Km of `O=P(O)(O)OC[C@H](O)CO` is reported as 29.4 ± 1 µM (GPAT (Gat1 and Gat2), yeast; substrate; Saccharomyces cerevisiae, BY4741 wild type, total membranes; with: 16:0 acyl-CoA 50 µM).
The Km of `[N-]=[N+]=NCC(=O)N[C@H]1[C@H]([C@H](O)[C@H](O)CO)O[C@@](O[C@H]2[C@@H](O)[C@@H](CO)O[C@@H](Oc3ccc([N+](=O)[O-])cc3)[C@@H]2O)(C(=O)O)C[C@@H]1O` is reported as 1000 ± 200 µM (Sialidase-2; substrate; 10 min, pH 5.0, 37 °C).
`Nc1ncnc2c1ncn2[C@@H]1O[C@H](COP(=O)(O)OP(=O)(O)OP(=O)(O)O)[C@@H](O)[C@H]1O` has a Km of 1900 ± 100 µM (Hexokinase-3 (HK3, Homo sapiens, UniProt P52790, A499V); substrate; mutant A499V, with: glucose 0.5 mM).
`CC1(C)S[C@@H]2[C@H](NC(=O)Cc3ccccc3)C(=O)N2[C@H]1C(=O)O` has a Km of 312 ± 39 µM (beta-lactamase RAD-1 (Riemerella anatipestifer); substrate, continuous spectrophotometric hydrolysis; 30 °C).
`N[C@H]1C(O)O[C@H](COP(=O)(O)O)[C@@H](O)[C@@H]1O` (stereo partly drawn) has a Km of 1670 µM (GNA1 (Naegleria fowleri); substrate, DTNB; with: acetyl-CoA).
The Km of `C[C@@H](O)[C@H]1C(=O)N2C(C(=O)O)=C(SCCN=CN)C[C@H]12` is reported as 19 ± 1.8 µM (beta-lactamase RAD-1 (Riemerella anatipestifer); substrate, continuous spectrophotometric hydrolysis; 30 °C).
`OO` has a Km of 16 µM (alternative ancestral dye-decolorizing peroxidase; peroxidase activity, substrate, steady-state kinetics; 25 °C, pH 3 ABTS, 4 others).

Repeated from above:
The Km of `C[C@@H](O)[C@H]1C(=O)N2C(C(=O)O)=C(SCCN=CN)C[C@H]12` is reported as 19 ± 1.8 µM (beta-lactamase RAD-1 (Riemerella anatipestifer); substrate, continuous spectrophotometric hydrolysis; 30 °C).
`OO` has a Km of 16 µM (alternative ancestral dye-decolorizing peroxidase; peroxidase activity, substrate, steady-state kinetics; 25 °C, pH 3 ABTS, 4 others).
